Literature values that unrelated publications cite.
Each line is one published result; not all experiments were run side by side. Values joined by “and” are separate records of one study, mostly repeats; a detail may differ. ± marks the error that the study gave.
UniProt P40337, sequence (whole entry, unmodified, looked up): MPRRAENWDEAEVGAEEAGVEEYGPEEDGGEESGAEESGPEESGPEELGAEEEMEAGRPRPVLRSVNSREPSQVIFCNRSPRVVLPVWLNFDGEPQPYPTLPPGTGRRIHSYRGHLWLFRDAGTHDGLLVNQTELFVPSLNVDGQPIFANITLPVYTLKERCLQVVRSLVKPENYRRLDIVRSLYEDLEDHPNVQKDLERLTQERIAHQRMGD
UniProt Q8NER1, sequence (whole entry, looked up): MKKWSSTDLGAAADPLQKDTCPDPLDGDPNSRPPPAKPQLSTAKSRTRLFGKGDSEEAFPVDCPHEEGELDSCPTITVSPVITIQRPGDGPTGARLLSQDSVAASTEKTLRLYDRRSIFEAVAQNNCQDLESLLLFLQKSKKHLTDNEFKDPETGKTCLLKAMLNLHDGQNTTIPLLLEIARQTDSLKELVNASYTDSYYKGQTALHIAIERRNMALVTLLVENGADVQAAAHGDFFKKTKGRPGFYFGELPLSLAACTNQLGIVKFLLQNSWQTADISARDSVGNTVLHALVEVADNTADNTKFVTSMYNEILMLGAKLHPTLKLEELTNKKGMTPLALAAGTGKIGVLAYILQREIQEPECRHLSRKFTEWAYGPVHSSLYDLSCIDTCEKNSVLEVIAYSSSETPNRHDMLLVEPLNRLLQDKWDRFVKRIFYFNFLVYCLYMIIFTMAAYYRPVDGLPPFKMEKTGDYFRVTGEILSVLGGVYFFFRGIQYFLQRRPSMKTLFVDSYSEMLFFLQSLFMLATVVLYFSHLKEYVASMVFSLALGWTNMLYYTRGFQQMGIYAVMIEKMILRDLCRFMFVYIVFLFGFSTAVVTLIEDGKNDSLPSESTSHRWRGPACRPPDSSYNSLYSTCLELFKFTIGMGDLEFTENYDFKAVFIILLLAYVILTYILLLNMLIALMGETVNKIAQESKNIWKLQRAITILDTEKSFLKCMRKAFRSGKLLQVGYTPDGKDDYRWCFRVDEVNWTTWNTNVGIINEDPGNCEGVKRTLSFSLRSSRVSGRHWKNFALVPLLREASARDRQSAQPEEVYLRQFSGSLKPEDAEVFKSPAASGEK

SMILES	tested on	test	system	conditions	scale	endpoint	result
Cc1ncsc1-c1ccc2c(c1)OCCOCCOC[C@@H](NC(=O)C[C@@H]1N=C(c3ccc(Cl)cc3)c3c(sc(C)c3C)-n3c(C)nnc31)COCCOCCOCC(=O)N[C@@H](C(C)(C)C)C(=O)N1C[C@H](O)C[C@H]1C(=O)NC2	von Hippel-Lindau disease tumor suppressor, with Elongin B/C (VHL, Homo sapiens, UniProt P40337)	isothermal titration calorimetry		VCB titrated into compound		ΔH	-6.7 kcal/mol
CCCN(C)c1cc(C(F)(F)F)nc(SCCC(=O)NCc2ccco2)n1	TRPV2	inhibitor				IC50	460 nM
CC(C)=CCCC(C)=CCCn1cc(CC(P(=O)(O)O)P(=O)(O)O)nn1	geranylgeranyl diphosphate synthase	enzyme activity, inhibitor				IC50	45 nM
O=c1ccc(OCCCN2CCCCC2)nn1-c1ccc(Cl)c(Cl)c1	Transient receptor potential cation channel subfamily V member 1 (TRPV1, Homo sapiens, UniProt Q8NER1)			1.0 µM		inhibition	23.3 ± 1.9%
CCc1cccc(Sc2cc(C(=O)N3Cc4ccccc4C3)ccc2O)c1	Grp94					IC50	33900 nM
CCCCCCCCCCCCCC(=O)NCC(O)c1ccccc1 (stereo not drawn)	acid ceramidase (purified)	micellar				IC50	1290 nM
Cn1nnnc1Sc1ncnc2scc(-c3cccc(S(C)(=O)=O)c3)c12	PI5P4Kγ	inhibitor				IC50	16000 nM
O=C(C=C(O)C(F)(F)C(F)(F)F)c1cccnc1	Plasmodium falciparum formate-nitrite transporter	L-lactate transport, inhibitor, radiolabelled uptake	yeast			IC50	110 ± 10 nM
N=C(N)c1ccc(OCCCCCCCCCCOc2ccc(C(=N)N)cc2)cc1	PRMT5					IC50	43000 nM
CN(C)c1ccc(C(=O)N2CCC(n3cncc3-c3ccc(OS(=O)(=O)c4cccc5cnccc45)cc3)CC2)cc1	P2X7 receptor	fluorescence				IC50	0.11 ± 0.04 nM
CC(C)NCCCn1c(Sc2cc(Cl)cc(Cl)c2)nc2c(N)ncnc21	Grp94					IC50	22 nM
COC(F)(F)C(F)(F)C(O)=CC(=O)c1cccnc1	Plasmodium falciparum formate-nitrite transporter	L-lactate transport, inhibitor, radiolabelled uptake	yeast			IC50	310 ± 10 nM
COc1ccc(C)cc1S(=O)(=O)Nc1ccc(Cl)c(N2CCCS2(=O)=O)c1	urea transporter B (UT-B)	urea transport, inhibitor				IC50	~10000 nM
O=C(C=C(O)C(F)(F)C(F)(F)F)c1ccc(NC(=O)c2ccccc2)nc1	Plasmodium falciparum formate-nitrite transporter	L-lactate transport, inhibitor, radiolabelled uptake	yeast			IC50	370 ± 20 nM
CS(=O)(=O)Nc1ccc(-c2cncc(-c3cccc4cc[nH]c34)c2)cc1	PI5P4Kβ	inhibitor				IC50	9400 nM
OCCNc1nc(NCCc2ccccc2)c2cnn(/C=C\c3ccccc3)c2n1	SGK1			literature value		IC50	600 nM
COc1cc2ncc3[nH]c(=O)n([C@H](C)c4ccccn4)c3c2cc1-c1c(C)noc1C	BRD3					IC50	250 nM
CN(C)C/C=C/C(=O)Nc1ccc(C(=O)Nc2cccc(Nc3cc(-c4c[nH]c5ccccc45)ncn3)c2)cc1	BRK kinase (PTK6)	enzyme activity, inhibitor				IC50	< 320 nM
C[C@H](CN(C)Cc1ccccc1)NC(=O)c1ccc(-c2noc(C(F)(F)F)n2)cc1	HDAC4					IC50	0.08 ± 0.02 nM
CCCc1cc2cc(-n3nc(CC)c4c3CC(C)(C)CC4=O)cc(NC3CCC(O)CC3)c2c(=O)[nH]1 (stereo not drawn)	Hsp90β	inhibitor				IC50	58 nM
Cc1cc(C)c(C(=O)N[C@@H](Cc2ccc(N3CCC(CNc4ccccn4)CC3)cc2)C(=O)O)c(C)c1	integrin α5β1		HEK293			IC50	173 nM
COc1cccc(Cn2cc(-c3cccc(NC(=O)Nc4ccc(Br)cc4)c3)nn2)c1	IDO1	inhibitor				IC50	750 nM
CC1(N(CC(=O)O)CC(=O)O)CN(CC(=O)O)CCN(CC(=O)O)C1		pH-potentiometry, refers to: logK4H	0.1 M KCl	25 °C		protonation constant (log)	2.24
Cc1[nH]c(=O)c(CNC(=O)c2cc(Cl)c3c(c2C)O[C@@](C)([C@H]2CC[C@H](N(C)C)CC2)O3)c(C)c1O	EZH2	enzyme activity, inhibitor				IC50	26 nM
CCCNc1ccc(C(=O)C=C(O)C(F)(F)C(F)(F)F)cn1	Plasmodium falciparum formate-nitrite transporter	L-lactate transport, inhibitor, radiolabelled uptake	yeast			IC50	200 ± 20 nM
O=S(=O)(c1ccc(-c2ccc3ncnc(Nc4ccc(OCc5ccccc5F)c(Cl)c4)c3c2)cc1)N1CCOCC1	Trypanosoma brucei	parasite growth				EC50	1700 nM

SMILES	tested on	test	system	conditions	scale	endpoint	result
CC(=O)Nc1ccc(C(=O)C=C(O)C(F)(F)C(F)(F)F)cn1	Plasmodium falciparum formate-nitrite transporter	L-lactate transport, inhibitor, radiolabelled uptake	yeast			IC50	210 ± 10 nM
CCCOc1ccc(C=C2C(=O)NN(c3ccccc3)C2=O)c(OCC(O)CC(=O)O)c1C (stereo not drawn)	P2Y12 receptor	inhibitor		S-enantiomer, literature value		IC50	0.8 nM
CC(C)=CCC/C(C)=C/CCn1cc(CC(C)(P(=O)(O)O)P(=O)(O)O)nn1	geranylgeranyl diphosphate synthase	enzyme activity, inhibitor				IC50	125 nM
N=C(N)NCCC[C@H](NCc1ccccn1)C(=O)NCc1ccc(CNCCCNC2CCCCC2)cc1	CXCR4	binding, competitive binding				IC50	12 nM
CN(CCN)Cc1ccccc1Sc1ccccc1Cl	PRMT1	enzyme activity, inhibitor, AlphaLISA				IC50	1.1 nM
CCCCCCCCCCCCCC(=O)N[C@H](C)[C@@H](O)c1ccccc1	acid ceramidase	radiometric	HL-60 and HaCaT			IC50	> 500000 nM
Cc1cc(OC(C)C)cc(C)c1C(=O)N[C@@H](CNC(=O)NNC(=O)c1cccc(NC(=N)N)c1)C(=O)O	integrin α5β1	binding, solid-phase binding				IC50	0.96 nM
O=C(C=C(O)C(F)(F)C(F)(F)Cl)c1cccnc1	Plasmodium falciparum formate-nitrite transporter	L-lactate transport, inhibitor, radiolabelled uptake	yeast			IC50	180 ± 30 nM
COc1ccc(Nc2nc(Nc3ccc(OCC[18F])cc3)ncc2Br)cc1			S180 tumour-bearing mice	intravenous, 60 min	reference: tumour over blood	tumour to tissue ratio	1.67
CCOC(=O)C(c1cc(Cl)c2cccnc2c1O)c1c[nH]c2ccccc12 (stereo not drawn)	MRC-5 fibroblasts	cell viability				IC50	54500 nM and 55100 nM
COc1cc(Nc2ncnc3ccc(-c4ccc(S(=O)(=O)N5CCOCC5)cc4)cc23)ccc1OCc1cccc(F)c1	Trypanosoma brucei	parasite growth				EC50	1900 nM
O=C(CCCc1ccccc1)NC1CCOC1=O (stereo not drawn)	LuxR	reporter gene, luxI-luxCDABE reporter				IC50	2000 nM
N#CN=C(NCc1ccc(S(=O)(=O)c2cccc(OC(F)(F)F)c2)cc1)Nc1ccncc1	NAMPT					IC50	4.4 nM
COc1cccc(/C=C2/SC(=N)NC2=O)c1OC	urea transporter UT-A1	inhibitor				IC50	~7000 nM
CCCN(C)c1ccc(C(=O)C=C(O)C(F)(F)C(F)(F)F)cn1	Plasmodium falciparum formate-nitrite transporter	L-lactate transport, inhibitor, radiolabelled uptake	yeast			IC50	350 ± 800 nM
O=C(Cc1ccc(Br)cc1)N[C@H]1CCOC1=O	LuxR	reporter gene, luxI-luxCDABE reporter				IC50	4000 nM
CCc1ccc(-c2cc(C(N)=O)c(NC3CCC(O)CC3)cc2C)cc1 (stereo not drawn)	Grp94					IC50	50 nM
COc1cccc(-c2cc(F)ccc2[C@H]2Cc3nc(N)nc(C)c3C(=O)N2)n1	TRAP1	inhibitor				IC50	320 nM
COc1cccc(CNC(=O)c2ccc3cccc(O)c3n2)c1	urea transporter B (UT-B)	urea transport, inhibitor				IC50	> 50000 nM
O=C(CCc1ccc(C(F)(F)F)cc1)N[C@H]1CCOC1=O	TraR, Agrobacterium tumefaciens	reporter gene, antagonist, traI-lacZ reporter				IC50	200 nM
c1ccc2c(c1)CCCNC2c1c[nH]c2ccccc12 (stereo not drawn)	COLO 320 ABCB1-resistant colon	cytotoxicity				IC50	41100 nM
O=C(CC(=O)N[C@H]1CCOC1=O)Cc1ccccc1	LuxR	reporter gene, luxI-luxCDABE reporter				IC50	2000 nM
O=C(C=C(O)C(F)(F)C(F)(F)F)c1ccoc1	Plasmodium falciparum formate-nitrite transporter	L-lactate transport, inhibitor, radiolabelled uptake	yeast			IC50	100 ± 10 nM
Cc1sc(-c2ccc(C(F)(F)F)cc2)nc1-c1nn[nH]c1C#N			ZDF rat	10 mg/kg/day, 6 weeks		HbA1c change from baseline	2.11 ± 0.16%
COc1nc(-c2cc(C)c(NC(C)c3ccc(F)cc3)nn2)ccc1-n1cnc(C)c1 (stereo not drawn)	Notch	inhibitor				IC50	> 25000 nM

Some of these lines once more:
SMILES	tested on	test	system	conditions	scale	endpoint	result
CCCNc1ccc(C(=O)C=C(O)C(F)(F)C(F)(F)F)cn1	Plasmodium falciparum formate-nitrite transporter	L-lactate transport, inhibitor, radiolabelled uptake	yeast			IC50	200 ± 20 nM
O=S(=O)(c1ccc(-c2ccc3ncnc(Nc4ccc(OCc5ccccc5F)c(Cl)c4)c3c2)cc1)N1CCOCC1	Trypanosoma brucei	parasite growth				EC50	1700 nM
CC(=O)Nc1ccc(C(=O)C=C(O)C(F)(F)C(F)(F)F)cn1	Plasmodium falciparum formate-nitrite transporter	L-lactate transport, inhibitor, radiolabelled uptake	yeast			IC50	210 ± 10 nM
CCCOc1ccc(C=C2C(=O)NN(c3ccccc3)C2=O)c(OCC(O)CC(=O)O)c1C (stereo not drawn)	P2Y12 receptor	inhibitor		S-enantiomer, literature value		IC50	0.8 nM
CC(C)=CCC/C(C)=C/CCn1cc(CC(C)(P(=O)(O)O)P(=O)(O)O)nn1	geranylgeranyl diphosphate synthase	enzyme activity, inhibitor				IC50	125 nM
N=C(N)NCCC[C@H](NCc1ccccn1)C(=O)NCc1ccc(CNCCCNC2CCCCC2)cc1	CXCR4	binding, competitive binding				IC50	12 nM
CN(CCN)Cc1ccccc1Sc1ccccc1Cl	PRMT1	enzyme activity, inhibitor, AlphaLISA				IC50	1.1 nM
